Measurements of several laboratories.
Several values in a cell are separate wells, animals, samples, runs or records. ± gives the spread as reported. Values after ≈ are worked out from the molar mass of the structure shown.
Chain of UniProt Q9UK32 (whole entry, looked up): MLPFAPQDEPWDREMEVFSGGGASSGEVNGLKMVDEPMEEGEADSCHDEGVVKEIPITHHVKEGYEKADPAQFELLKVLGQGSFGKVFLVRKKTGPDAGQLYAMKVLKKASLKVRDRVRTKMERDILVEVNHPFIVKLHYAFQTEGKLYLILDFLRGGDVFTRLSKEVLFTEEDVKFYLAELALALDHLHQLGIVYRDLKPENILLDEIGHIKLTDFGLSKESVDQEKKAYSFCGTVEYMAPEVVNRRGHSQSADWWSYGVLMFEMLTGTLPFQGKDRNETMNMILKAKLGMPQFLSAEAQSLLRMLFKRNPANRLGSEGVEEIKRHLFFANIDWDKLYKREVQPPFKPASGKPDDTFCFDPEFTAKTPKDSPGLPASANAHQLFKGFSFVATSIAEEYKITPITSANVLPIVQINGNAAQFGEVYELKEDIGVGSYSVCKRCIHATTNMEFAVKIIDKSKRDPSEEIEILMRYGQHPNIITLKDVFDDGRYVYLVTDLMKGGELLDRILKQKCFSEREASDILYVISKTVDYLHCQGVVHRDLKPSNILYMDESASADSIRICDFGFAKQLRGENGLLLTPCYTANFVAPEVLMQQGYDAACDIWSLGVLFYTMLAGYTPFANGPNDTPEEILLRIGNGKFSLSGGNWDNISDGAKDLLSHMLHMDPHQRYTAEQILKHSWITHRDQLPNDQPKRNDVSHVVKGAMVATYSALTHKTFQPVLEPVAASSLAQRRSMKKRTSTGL

SMILES | tested on | test | test system | setting | scale | measurement | result
C#CCN1C(=O)C(CC#C)(C(=O)OCC)Oc2ccccc21 (stereo not drawn) | Triticum aestivum | no effect, hydroponic germination | seedlings | 50 µg/mL, 4 days | – | bud growth | no effect
O=C1NC(=O)c2c1c1cc(F)c[n+]3c1c1c2c2cc(O)ccc2[n]1[Ru-4]312([N]=C=S)[S+]3CC[S+]1CC[S+]2CC3 (stereo not drawn) | RPS6KA6 (Homo sapiens, UniProt Q9UK32) | enzyme activity | – | 100 nM, human enzyme, together with: 10 µM ATP | baseline: untreated | remaining activity | 3%
CC(C)(C)C(=O)OCOP(=O)(OCOC(=O)C(C)(C)C)C1CCCN(O)C1=O (stereo not drawn) | OVCAR-5 | – | – | – | – | log TGI | -4.2 log M
CC[C@H](C)[C@H](NC(=O)[C@H](CCCCN)NC(=O)[C@H](CCCCN)NC(=O)[C@H](Cc1ccccc1)NC(=O)[C@H](Cc1ccccc1)NC(=O)[C@H](CCCCN)NC(=O)[C@H](CCCCN)NC(=O)[C@H](Cc1ccccc1)NC(=O)[C@H](CCCNC(=N)N)NC(=O)[C@@H](N)CCCCN)C(=O)N[C@@H](CCCCN)C(=O)N[C@@H](CCCCN)C(=O)N[C@@H](CO)C(=O)N[C@H](C(=O)N[C@@H](CCCCN)C(=O)N[C@@H](CCCCN)C(=O)N[C@@H](CCCNC(=N)N)C(=O)N[C@H](C(=O)N[C@@H](CCCCN)C(=O)N[C@@H](CCCCN)C(=O)N[C@@H](CC(C)C)C(=O)N[C@@H](Cc1ccccc1)C(=O)N[C@@H](CCCCN)C(=O)N[C@@H](CCCCN)C(=O)N1CCC[C@H]1C(=O)N[C@@H](CCCNC(=N)N)C(=O)N[C@H](C(=O)N[C@H](C(=O)N1CCC[C@H]1C(=O)N[C@H](C(=O)N[C@@H](CO)C(=O)N[C@H](C(=O)N1CCC[C@H]1C(=O)N[C@@H](Cc1ccccc1)C(=O)O)[C@@H](C)CC)[C@@H](C)CC)[C@@H](C)CC)C(C)C)C(C)C)C(C)C | Escherichia coli | MIC after serum incubation | E24 | 0 h, 37 °C, together with: 25% mouse serum | – | MIC | 4 µg/mL (≈ 0.948 µM)
CCCCCC(=O)NC(CC(=O)N(CC)CC)C(=O)NC(Cc1ccc(F)cc1)C(=O)NC(Cc1ccc(F)cc1F)C(=O)C1(C)CO1 (stereo not drawn) | Trypanosoma brucei brucei | – | HepG2 cells, Lister 427 | – | baseline: HepG2 CC50 over T. brucei EC50 | selectivity index | 36
CC1(F)CN(C(=O)Cn2c(=O)c(C(=O)NCc3ccc(Cl)cc3)cc3nc(N4CCN(CCN)C4=O)cnc32)C1 | herpes simplex virus 2 | cytopathic effect | G | – | baseline: CC50 over EC50 | selectivity index | > 52.3
CCN(CC)C(=O)CC(NC(=O)CCc1ccccc1)C(=O)NC(Cc1ccc(F)cc1)C(=O)NC(Cc1ccc(F)cc1F)C(=O)C1(C)CO1 (stereo not drawn) | Trypanosoma brucei brucei | – | HepG2 cells, Lister 427 | – | baseline: HepG2 CC50 over T. brucei EC50 | selectivity index | > 80 and 86
Cc1nc2cccc(OCC(C)(C)C(=O)NC(C)C)c2c(N)c1C(=O)[O-].[Na+] | Salmonella typhimurium | – | TA100 | 2.0 mg per plate, without S9, preincubation | – | revertant colonies per plate | 121 ± 4
COc1ccccc1-c1n[nH]c2nc(NC3CCN(C(=O)Cc4ccc(F)cc4F)CC3)ncc12 | Leishmania donovani CYCA (LINJ.25.1530) | bead binding competition | Leishmania donovani extract | 10 µM | baseline: vehicle | relative abundance | 0.72
O=C(Oc1cc(OC(=O)c2cc(O)c(O)c(O)c2)c2ccccc2c1)c1cc(O)c(O)c(O)c1 | herpes simplex virus 2 | RT-qPCR | HeLa, acyclovir-resistant | – | baseline: CC50 over IC50 | therapeutic index | 31.6
O=C1NC2(CC2)COc2ncc(F)cc2[C@H]2COCCN2c2ccn3ncc1c3n2 | – | – | Sprague-Dawley rat, female, serum | oral, 10 mg/kg/day, end of treatment, 4-week subacute toxicity | – | serum urea | 5.66 ± 1.08 mmol/L
C[C@H]1O[C@@H](O[C@H]2CC[C@@]3(C)[C@H](C2)C[C@@H]2O[C@]24[C@@H]3C[C@@H](O)[C@]2(C)[C@@H](C3=CC(=O)OC3)CC[C@@]24O)[C@H](O)[C@H](O)[C@@H]1O[C@@H]1O[C@H](CO)[C@@H](O)[C@H](O)[C@H]1O | Oncopeltus fasciatus | HPLC-UV | adult whole body | diet, 0.58 mg/g dry diet | – | sequestered amount | 0.07 mg/g dry mass
